Measured values pooled from the literature.
A part holds a random share of what one study measured.

Study 1
Target: RNA binding protein fox-1 homolog 2, RRM domain, GST-SBP tag (RBFOX2, Homo sapiens, UniProt O43251-10, residues 100-194)
Method: RNA Bind-n-Seq
Form: RNA
Medium: in vitro
Concentration: 365 nM
Setting: natural RNA segment, single round, ends assumed
Relative to: no-protein control
Direction: higher = stronger binding
Target sequence (chain): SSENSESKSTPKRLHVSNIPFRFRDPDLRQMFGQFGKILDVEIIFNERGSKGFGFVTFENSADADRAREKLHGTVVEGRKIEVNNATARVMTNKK
| Sequence | RBNS enrichment (R) |
| --- | --- |
| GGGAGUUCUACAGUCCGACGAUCCCAGAGAUGAUGGCAGUCCAGCAGCAACUCCCUGUGCUCCCUUCUCUUUGGGCAGAGAUUCUAUUUUUGACAUUUGCACAAGACAGGUAGGGAAAGGGGACUUGUGGUAGUGGAAUUCUCGGGUGCCAA | 0.72 |
| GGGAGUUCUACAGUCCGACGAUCUUUUUGGAAGGUGCCUAAUGCUUAGGAUAGUCUCUAGGGUGAUGCACUGCACCUGCUUCCUUCCCUUCAGUGCGGCCGACCCAUUUCUGUUGAACAGAUGUCUCCUGUGUUGGAAUUCUCGGGUGCCAA | 0.914 |
| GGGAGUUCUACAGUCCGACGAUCAAAUCACUGCCGGAGACAGCCCACAUUUCCUUGUAGUUGUUAUUAGGGCACAAACCACUCCACAGUCCCAGUGUGGAGUCACAGUCUAGAGAGAAUUGGAAAUGCACGUGUGGAAUUCUCGGGUGCCAA | 1.08 |
| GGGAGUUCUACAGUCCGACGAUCUAAGAGCUUUAAAACUAUUUUUUUACAUGCCUUAUAUACAUUCCACUAAUGACAUUCUUAUAAUAAUAUUAAACACAUGAUCUUGGUACUAACAUACUCACUGUGAACCCUGGAAUUCUCGGGUGCCAA | 0.462 |
| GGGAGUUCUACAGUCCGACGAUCAUGACAUUCUGGCCUUGGACAGAUUCUGUUGUCCUCGACGCGUCUCUUUAUAAAGUGGUAAAAGCCUGAAAUUCAGGGCAGCUCUCCAUGAGGUGCUGAAGGGCUCUUUUUGGAAUUCUCGGGUGCCAA | 0.213 |
| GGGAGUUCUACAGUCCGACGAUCUAUGCACCUUAUCUGCCUGUUGUGGGUUUCUUAAACUUGCACUUCCUACCCACCCAAAGAUAGAUAUCCUUUAAAGAAAAUAAAGGCAGAGAAUUAAAACUGGGGAGCCAUGGAAUUCUCGGGUGCCAA | 1.34 |
| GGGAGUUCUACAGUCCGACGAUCUGUAAAGUGCGAGGGGUGGGCUGUGCCCAGCACCCAGGGCCUAGGGGGCAAUUCUCCCUAGUGCCUCUGCACCAGACACCACAAAACCUCAGCCAUGCUGCCGCCGAAGGUGGAAUUCUCGGGUGCCAA | 0.319 |
| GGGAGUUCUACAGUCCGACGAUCGGCAAUCAUUUUGAAUACUGUUCUGUGACCCUGACUGCUAGUUCUGAGGACACUGGUGGCUGUGCUAUGUGUGGCCAUCCUCCAUGUCCCGUCCCUGUAGCUGCUCUGUUUGGAAUUCUCGGGUGCCAA | 0.317 |
| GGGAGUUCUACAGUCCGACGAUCUGGUGAUUUUUUAGCCCCUAAAUAAAACACUGGACUAUUUCCUGUUUACUUCAUUGAUUGCAACUACAAAGGUGGACUCAAAGCAAAGCACAAUCAUGCCAGCCAACAUUUGGAAUUCUCGGGUGCCAA | 0.632 |

Study 2
Target: Sal-like protein 4, full length isoform B (SALL4, Homo sapiens, UniProt Q9UJQ4-2, residues 1-616)
Method: universal PBM
Form: double-stranded DNA, one strand shown
Medium: in vitro
Concentration: not given
Setting: 8-mer, flanks averaged, mean of replicates
Direction: higher = stronger binding
| Sequence | E-score |
| --- | --- |
| CACCCATC | 0.105 |
| ACTACCTC | -0.00262 |
| ACAATCTA | 0.127 |
| ACATGTCG | 0.0319 |
| AAAGGACT | -0.0235 |
| GCTGGAGA | -0.196 |
| CTGGCCTC | -0.278 |
| ATCAAGTG | 0.0927 |
| GGCCTTTA | -0.0805 |
| CGCAAATA | 0.241 |
| ACATCCCG | 0.00462 |
| ATGCTAGA | 0.164 |
| AAACGTAT | 0.219 |
| AATGAGGG | -0.0697 |
| ATTGGGCA | 0.0247 |
| AAATCGCT | 0.0343 |
| CCGGCCTA | -0.18 |
| CTGCACCA | -0.161 |
| GGGGCGAC | -0.332 |
| GCTAACGA | -0.00586 |
| AATGGAAA | 0.14 |
| ACAGATTC | 0.131 |
| CGAATTAA | 0.158 |
| CATTGGCC | -0.175 |

Study 3
Target: RING finger protein unkempt homolog, zinc fingers 1-6, SBP tag (UNK, Homo sapiens, UniProt Q9C0B0, residues 30-357)
Chain of UniProt Q9C0B0 (30-357, looked up): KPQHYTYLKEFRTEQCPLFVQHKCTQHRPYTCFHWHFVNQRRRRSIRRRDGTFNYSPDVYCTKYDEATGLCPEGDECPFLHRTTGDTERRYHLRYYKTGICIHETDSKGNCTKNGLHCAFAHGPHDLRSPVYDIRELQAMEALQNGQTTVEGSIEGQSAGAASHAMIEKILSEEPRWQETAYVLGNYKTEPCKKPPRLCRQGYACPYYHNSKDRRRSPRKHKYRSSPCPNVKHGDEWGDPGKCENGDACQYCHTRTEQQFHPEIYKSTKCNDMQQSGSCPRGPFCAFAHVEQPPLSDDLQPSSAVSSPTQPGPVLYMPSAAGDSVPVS
Method: RNA Bind-n-Seq
Form: RNA
Medium: in vitro
Concentration: 100 nM
Setting: RNA with constant flanks, vertebrate orthologous sites, ends assumed
Relative to: input RNA pool
Direction: higher = stronger binding
| Sequence | bound/input enrichment [ratio] |
| --- | --- |
| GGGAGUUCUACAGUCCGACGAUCCCAUUUUAUAUAUGGAUGUAUUUAUACUGGCCAAACAUUUUUGACUUUUUGUUUUCGUAGGUCUUGUUGUGUAUACCUGCACCGUCUGUCUCCUUCGCUGAAGGGCUAGAGUUUUAACUUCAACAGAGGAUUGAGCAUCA | 0.355 |
| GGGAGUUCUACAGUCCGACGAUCUAUAUGCUUUGUUUAAAAUUAUUUAGAUAAGAAAUUAUUGCUGUUUACACGUGUUUUCAAAAUGGCUAUCCUAUUUUUUUAAUCCAUUUUGCAAAUAUUAGAUGUGUGUGUUUUCUUAACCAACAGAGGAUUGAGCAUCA | 0.466 |
| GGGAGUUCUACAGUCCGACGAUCGCCCCCCACUCCCUGUGAGAGGGAAUGGGGGAAGCCUGAUGACCCUCAGCUGUUCCAAUCUAGUAUUUUUUUCUUUUUUAAAGUUACUGUAUUUAUUAUGACGAUGGUGACUCCCCAGUGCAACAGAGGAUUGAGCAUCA | 2.29 |
| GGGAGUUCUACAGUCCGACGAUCAUUAAAUGCGUAUCAAAUGCUGGAUAUCCCAUUAAACCAUCAUUUAGGAUAGAUGUUAGUUUAUUGUAAUUAAGCUACAAAUAGGUUUCCUUAAACCAGAAAUGCACUGCCCUUGUCCGACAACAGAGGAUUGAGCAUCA | 0.475 |
| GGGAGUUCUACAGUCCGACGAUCGGAAAGUUACAGACCAGACUCUGAAAGCAGAAGUACAGGAUCCUGGUUAUCAUCAUCUUUGAGGAAUAGAUGUACACCGCUCUUUUCCAGAAGAAGAAGAGAAGGGAGAGAUGAAUCUGCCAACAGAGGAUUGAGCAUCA | 0.328 |
| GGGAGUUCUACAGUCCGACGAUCGCUGUUAAUGCACUGUUAUACCAGGCAUUGUCUGAAGUUAGUGUAAUCUAGAAGAUUUUAUAGUUUUAUUUUAAUGAAGUAUGAAUCGGAACAAAACUGUUAGGAGUAUGUAGUCUUUUACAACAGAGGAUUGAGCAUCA | 1.79 |
| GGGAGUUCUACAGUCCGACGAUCUUGUGGAAAAGGAGACGGGGAAAACUAGAUAGAUUCUCCCUUCCAAAAAUAUAUCCUGUUGUUAAUUGGGUGUGUAGAACUGGCUAAGAAUUUUUUUUUUUCAAAUGCUGCAUCACAAAGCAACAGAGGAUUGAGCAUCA | 0.748 |
| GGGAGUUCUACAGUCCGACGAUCACGUAUCCCAGUUUACUGUGUUGAGUUGGCAUUGUACAGAAAUUAACAGCCAUAUUGGUCUAGAAAUGUUGAACUUAAUUUUUUUCCAUUUGUACAGGGGUAACGCACUGUAUUAAAUAUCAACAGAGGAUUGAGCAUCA | 0.663 |
| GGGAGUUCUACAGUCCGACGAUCAUCCCAGUUUGUAUGCACAUUAUUCCCAUUCCUAUCUGUUGUGUUUGCAGAAAUUACAUUUUACCCUUUUCUAAGGAAUAUCUUUUGAUUUUCAUAUUAUUUGGUUGCAUGGAGUUGCCCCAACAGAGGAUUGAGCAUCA | 0.602 |
| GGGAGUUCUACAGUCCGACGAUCCAGGUCUGUAAAUGUGUGCUAAACAAAAGGAAACAAAUCAGAGUUUAUUUAUAAACAGAAUAGUUUAUUUAAAGUGAUGGUCUUUCCCUCAUUGAUAUUGUGGUAUGCAUUAUUAAUUCACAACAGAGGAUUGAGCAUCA | 0.414 |
| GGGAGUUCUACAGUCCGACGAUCAAAUAUGUUGUACAUUUGAUUAAAAUUAUUUAGAUAAAUAUUACUAUGUUGACUUUUAAAUAGCUUUAUCCUAUUUUUCAUUCAUUUUGCAAAUAUUUGUUGUGUGUAGUUUCUUAACGUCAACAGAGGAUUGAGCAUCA | 0.553 |

Study 4
Target: Centromere-binding protein 1, full length, N-terminal tag (CBF1, Saccharomyces cerevisiae, UniProt P17106, residues 1-351)
Chain of UniProt P17106 (whole entry, looked up): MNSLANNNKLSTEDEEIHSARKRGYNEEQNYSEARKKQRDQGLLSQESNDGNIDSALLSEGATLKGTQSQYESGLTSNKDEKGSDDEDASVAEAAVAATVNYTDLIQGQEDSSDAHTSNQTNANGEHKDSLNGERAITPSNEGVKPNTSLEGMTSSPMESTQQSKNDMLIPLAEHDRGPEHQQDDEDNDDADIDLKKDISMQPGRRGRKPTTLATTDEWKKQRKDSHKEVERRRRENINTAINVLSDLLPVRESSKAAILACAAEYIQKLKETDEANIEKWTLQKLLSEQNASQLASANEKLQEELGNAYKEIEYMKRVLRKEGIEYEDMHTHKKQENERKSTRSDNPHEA
Method: protein-binding microarray
Form: double-stranded DNA, one strand shown
Medium: in vitro
Concentration: 0.8 µM
Setting: whole 60-bp probe, no competitor
Direction: higher = stronger binding
| Sequence | fluorescence intensity [a.u.] |
| --- | --- |
| CTATAGGTTGCTTATCACACCATATGGTGCACCTTCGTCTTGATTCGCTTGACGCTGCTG | 561 |
| GAAACTGCCCACGAGCACATGGGGTGAGTTATATAGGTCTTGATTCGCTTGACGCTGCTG | 855 |
| GAAGCGTATAGTAGGCACGTGGTAGTCCACCCGTAGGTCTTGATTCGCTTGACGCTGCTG | 5170 |
| CCTAACTACTATAAGCACGTGTCATAGCTTCGTACAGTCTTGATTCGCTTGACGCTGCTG | 11000 |
| CTATTTCTTTTCCTGCGCACGCCGATAAAGAAGTTCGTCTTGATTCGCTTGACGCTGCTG | 562 |
| GAACAACTTCCATAGTACGTGCCTGCTACTGTGTAGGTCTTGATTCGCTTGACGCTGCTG | 533 |
| GAAGTAGTTCAAATTGCGGTCACGTATATGCCATAGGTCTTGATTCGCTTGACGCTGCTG | 1200 |
| GAAAAAGTTTCTGTTCACGTTTTCATGGCATTTTAGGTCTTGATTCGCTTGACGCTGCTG | 805 |
| CTATTGATATCGTGCGTCATGATGATAATACCGTTCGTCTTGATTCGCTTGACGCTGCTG | 628 |
| CTAATCAATTCATTTAACGTGTCTGGACGGACTTTCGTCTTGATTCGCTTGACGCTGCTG | 540 |
| CTATAACCCAGTTTCAACGTGTTATTACTCAACTTCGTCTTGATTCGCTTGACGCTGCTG | 533 |
| CTACAGCATTGTGGTCATGCGAGATGTCTAAGATTCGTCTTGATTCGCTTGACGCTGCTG | 632 |
| CTATAAAGCACTGATTTGATGTTACCGAACTTTTTCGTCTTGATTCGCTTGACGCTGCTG | 516 |
| GAAATGGATGCTGAACATGTGGAATACCAGTTTTAGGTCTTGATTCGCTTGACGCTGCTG | 587 |
| CTAGCGAATCCACATTTTCACGTGAGCTTGCAATTCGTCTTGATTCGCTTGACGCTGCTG | 5180 |
| CCTAACTACTATAGAAAGGTCACATAGCTTCGTACAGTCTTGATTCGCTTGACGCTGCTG | 565 |
| GAAAATTATCAATGCGACGTGATTTCTGGTTGCTAGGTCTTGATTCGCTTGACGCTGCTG | 607 |
| GAAGTGGTCATCCTACTGGTGATGCTTCAACATTAGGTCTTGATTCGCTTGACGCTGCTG | 490 |
| CTAGCACTACTTTTTCACCAGATTAATGGTGCATTCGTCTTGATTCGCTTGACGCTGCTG | 510 |
| GAAGGTGGGAACCACAGCGTGATGCTGACAAATTAGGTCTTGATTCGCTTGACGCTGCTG | 660 |
| CTACACAAAGCATGTCACGTCATGTAGCTGATCTTCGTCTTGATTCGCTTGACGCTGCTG | 785 |
